{"data": "Experimental data gathered from unrelated publications", "target": "Myotonin-protein kinase (DMPK, Homo sapiens, UniProt Q09013)", "note": "Each line is one published result; not all experiments were run side by side."}
{"SMILES": "Nc1ncc2c(n1)-c1c([nH]c3ccc(C4=CCOCC4)cc13)CCC2", "test": "binding, competition with immobilised ligand", "setting": "1 µM", "quantity": "remaining binding", "value": "100%"}
{"SMILES": "COc1c(OCCCN2CCOCC2)ccc2c1N=C(NC(=O)c1cnc(N)nc1)N1CCN=C21", "test": "kinase activity, inhibitor", "setting": "1 µM", "scale": "baseline: untreated control", "quantity": "remaining activity", "value": "111%"}
{"SMILES": "CCn1cc(C(=O)O)c(=O)c2c(N)c(F)c(NC3CCCCC3)cc21", "test": "kinase activity", "setting": "0.1 µM, added: ATP at Km", "quantity": "inhibition", "value": "-9.7%"}
{"SMILES": "CNC(=O)C[C@H](Cc1ccc(C#N)cc1)NC(=O)c1cc(-c2ccc(CN[C@H](C)c3ccc(C)cc3)o2)ccc1Cl", "test": "enzyme activity, inhibitor", "setting": "1 µM", "quantity": "activity vs control", "value": "104%"}
{"SMILES": "Nc1ncc(-c2cc(-c3cnn(CC(F)(F)F)c3)ncc2F)nc1C(=O)NC1CNCC(F)C1 (stereo not shown)", "test": "enzyme activity", "setting": "1 µM", "scale": "baseline: DMSO control", "quantity": "remaining activity", "value": "93.3%"}
{"SMILES": "O=C=[N][Ru-4]123([n]4c5ccc(O)cc5c5c6c(c7cc(F)c[n+]1c7c54)C(=O)NC6=O)[S+]1CC[S+]2CC[S+]3CC1 (stereo not shown)", "test": "enzyme activity", "setting": "100 nM, human enzyme, added: 10 µM ATP", "scale": "baseline: untreated", "quantity": "remaining activity", "value": "110%"}
{"SMILES": "COc1cc(Nc2nc(C)cc(-c3cnn4nc(OC)ccc34)n2)cc(C(F)(F)F)c1", "test": "inhibitor", "setting": "1 µM", "scale": "baseline: control", "quantity": "remaining activity", "value": "100%"}
{"SMILES": "O=C(Cc1ccc(OCc2ccccc2)cc1)NC1(C(=O)O)CCN(C(=O)c2ccc(-c3cccc(Cl)c3)cc2)CC1", "test": "enzyme activity, inhibitor", "setting": "10 µM", "quantity": "activity vs control", "value": "89%"}
{"SMILES": "Cc1cnc2nc1Nc1cccc(c1)COC/C=C/COCc1cc(ccc1OCCN1CCOCC1)N2", "test": "binding", "setting": "0.1 µM", "quantity": "remaining binding", "value": "100%"}
{"SMILES": "NC(=O)[C@@H](O)C[C@H]1CCc2sc3ncnc(O[C@H]4CC[C@H](N5CCOCC5)CC4)c3c21", "test": "enzyme activity, inhibitor", "setting": "10 µM", "quantity": "inhibition", "value": "3%"}
{"SMILES": "C=CC(=O)N1Cc2nc(-c3cc(-c4cc(Cl)cnc4Cl)c(F)cc3F)n(-c3ccncn3)c2C1", "test": "cell-free assay, inhibitor", "setting": "1 µM", "quantity": "inhibition", "value": "-1.4%"}
{"SMILES": "C=CC(=O)N1CCCC(n2c(=O)c3ncccc3n(Cc3ccc(Oc4ccccc4)cc3)c2=O)C1 (stereo not shown)", "test": "cell-free assay, competition with immobilised ligand", "setting": "1 µM", "quantity": "remaining binding", "value": "100%"}
{"SMILES": "CNC(=O)C1CCN(c2cc(C)c(F)cc2NC(=O)c2ccc(-c3cc(O)ccc3C)c(C)c2)CC1", "test": "binding, competition with immobilised ligand", "setting": "1 µM", "quantity": "remaining binding", "value": "100%"}
